Measurements of several laboratories.
Lines come from different studies, so protocols differ. Numbers after ± are the reported error.

Structure (SMILES) | assay | test system | setting | quantity | result
O=C1NC2(CC2)COc2ncc(F)cc2[C@H]2COCCN2c2ccn3ncc1c3n2 |  | Sprague-Dawley rat, female, serum | oral, 20 mg/kg/day, end of recovery, 4-week repeated-dose toxicity | albumin | 44.8 ± 3.4 g/L
CSCC[C@H](NC(=O)CNC(=O)[C@H](CCCCN)NC(=O)[C@H](CC(C)C)NC(=O)[C@@H]1CCCN1C(=O)[C@H](CO)NC(=O)[C@H](Cc1c[nH]cn1)NC(=O)[C@H](Cc1c[nH]c2ccccc12)NC(=O)[C@H](CCCNC(=N)N)NC(=O)[C@H](CC(C)C)NC(=O)[C@H](CCCNC(=N)N)NC(=O)[C@H](Cc1c[nH]c2ccccc12)NC(=O)[C@H](CS)NC(=O)CCCCCNC(=O)CN1CCN(CC(=O)O)CCN(CC(=O)O)CCN(CC(=O)O)CC1)C(=O)O [copper-64 labelled] | ex vivo biodistribution | male C57BL/6J mice, bone | intravenous, 1.85 MBq, 0.5 h, B16-F10 tumour-bearing | tissue uptake | 2.06 %ID/g
CC[C@H](C)[C@H](NC(=O)[C@H](CCCCN)NC(=O)CNC(=O)[C@H](CC(C)C)NC(=O)[C@H](Cc1ccccc1)NC(=O)[C@H](CCCCN)NC(=O)[C@H](CO)NC(=O)[C@H](Cc1ccccc1)NC(=O)[C@H](Cc1c[nH]c2ccccc12)NC(=O)[C@H](CCC(N)=O)NC(=O)[C@@H](NC(=O)[C@H](Cc1ccccc1)NC(=O)CCCCCNC(=O)CN1CCN(CC(=O)O)CCN(CC(=O)O)CCN(CC(=O)O)CC1)C(C)C)C(=O)N[C@@H](CCC(=O)O)C(=O)N1CCC[C@H]1C(=O)N[C@@H](CC(=O)O)C(=O)N[C@H](C(=O)N[C@@H](CO)C(=O)N[C@@H](CCC(N)=O)C(=O)N[C@H](C(=O)N[C@@H](CCC(N)=O)C(=O)N[C@@H](CC(=O)O)C(=O)N1CCC[C@H]1C(=O)N[C@@H](CC(N)=O)C(=O)N[C@@H](CC(=O)O)C(=O)N[C@@H](CCC(N)=O)C(=O)N[C@@H](Cc1ccc(O)cc1)C(=O)N[C@@H](CCC(=O)O)C(=O)N1CCC[C@H]1C(=O)N[C@@H](Cc1ccccc1)C(=O)O)C(C)C)C(C)C [copper-64 labelled] |  | GZMB-/- mice, CT26 tumour-bearing, tumor | 2 h, checkpoint inhibitor-treated | tissue uptake | 1.74 ± 0.3 %ID/g
CN1Cc2cc(Cl)ccc2-n2c(nnc2C2CCN(c3cccc([18F])n3)CC2)C1 |  | C57BL/6 mouse male, stomach | intravenous, 3.7 MBq, 5 min | tissue uptake | 7.34 ± 1.04 %ID/g
CCCC[C@H]1C(=O)N(C)[C@@H](CCCC)C(=O)N[C@@H](CCCNC(=O)CN2CCN(CC(=O)O)CCN(CC(=O)O)CCN(CC(=O)O)CC2)C(=O)N[C@H](C(=O)NCC(N)=O)CSCC(=O)N[C@@H](Cc2ccc(O)cc2)C(=O)N(C)[C@@H](C)C(=O)N[C@@H](CC(N)=O)C(=O)N2CCC[C@H]2C(=O)N[C@@H](Cc2c[nH]cn2)C(=O)N[C@@H](CC(C)C)C(=O)N(C)CC(=O)N[C@@H](Cc2c[nH]c3ccccc23)C(=O)N[C@@H](CO)C(=O)N[C@@H](Cc2c[nH]c3ccccc23)C(=O)N1C [gallium-68 labelled] |  | NOD/SCID mice, CHO-hPD-L1 xenograft, lung | 60 min, PBS pretreatment | tissue uptake | 5.66 ± 0.73 %ID/g
CC[C@H](C)[C@H](NC(=O)[C@H](CCCNC(=N)N)NC(=O)[C@H](CCCCN)NC(=O)[C@H](Cc1ccc(O)cc1)NC(=O)[C@H](CC(=O)O)NC(=O)[C@H](C)NC(=O)CNC(=O)CCOCCOCCOCCNC(=O)CN1CCN(CC(=O)O)CCN(CC(=O)O)CCN(CC(=O)O)CC1)C(=O)N[C@H](C(=O)N[C@H](C(=O)N[C@@H](CCCCN)C(=O)N[C@H](C(=O)N[C@@H](CC(N)=O)C(N)=O)C(C)C)C(C)C)[C@@H](C)O [copper-64 labelled] | ex vivo gamma counting | C57BL/6J male mice, B16-F10 tumour, testis | intravenous, 1.85 MBq, 100 min | tissue uptake | 0.505 ± 0.076 %ID/g
C[C@H](O)[C@@H](NC(=O)[C@H]1CCCN1C(=O)[C@@H](CCCCN)NC(=O)[C@@H](CO)NC(=O)[C@@H](Cc1ccc(O)cc1)NC(=O)[C@@H](CC(N)=O)NC(=O)CCOCCOCCOCCNC(=O)CN1CCN(CC(=O)O)CCN(CC(=O)O)CCN(CC(=O)O)CC1)C(=O)N[C@H](CC(=O)O)C(=O)N[C@H](CCCNC(=N)N)C(=O)N[C@H](CCC(N)=O)C(=O)N[C@H](Cc1ccc(O)cc1)C(=O)N[C@H](Cc1c[nH]cn1)C(=O)N[C@H](Cc1ccccc1)C(N)=O [gallium-68 labelled] |  | BALB/c nude mice U-87 MG tumour, bone | intravenous, 1.85 MBq, 1 h, radiolabelled | tissue uptake | 0.26 ± 0.09 %ID/g
CCOP(=O)([O-])CNC(=O)CN1CCN(CC(=O)NCP(=O)([O-])OCC)CCN(CC(=O)NCP(=O)([O-])OCC)CCN(CC(=O)NCP(=O)([O-])OCC)CC1.[177Lu+3] |  | Sprague-Dawley rat, bone | intravenous (tail vein), dose not given, 2 h | tissue uptake | 0.002 ± 0.001 % injected dose/g
CC(C)C[C@@H](NC(=O)[C@@H](CCCNC(=N)N)NC(=O)[C@@H](Cc1c[nH]cn1)NC(=O)[C@@H](Cc1c[nH]c2ccccc12)NC(=O)[C@@H](Cc1c[nH]cn1)NC(=O)[C@@H](Cc1ccccc1)NC(=O)[C@H](NC(=O)[C@@H](Cc1ccc(O)cc1)NC(=O)CNC(=O)CNC(=O)CCOCCOCCOCCNC(=O)CN1CCN(CC(=O)O)CCN(CC(=O)O)CC1)[C@H](C)O)C(=O)N[C@H](CC(N)=O)C(=O)N1CCC[C@@H]1C(=O)O [gallium-68 labelled] |  | C57BL/6 mice, male, intestines | intravenous, 1.85 MBq, 60 min, together with: blocking antibody | tissue uptake | 0.78 ± 0.36 %ID/g
Cc1ccccc1-c1ccc(-c2nc(-c3ccc(CN(C)CCCC(=O)O)c([18F])c3)no2)cc1C(F)(F)F |  | Sprague Dawley rats, male, pancreas | 30 min | tissue uptake | 0.44 ± 0.1 %ID/g

Some of these lines once more:
Structure (SMILES) | assay | test system | setting | quantity | result
CC(C)C[C@@H](NC(=O)[C@@H](CCCNC(=N)N)NC(=O)[C@@H](Cc1c[nH]cn1)NC(=O)[C@@H](Cc1c[nH]c2ccccc12)NC(=O)[C@@H](Cc1c[nH]cn1)NC(=O)[C@@H](Cc1ccccc1)NC(=O)[C@H](NC(=O)[C@@H](Cc1ccc(O)cc1)NC(=O)CNC(=O)CNC(=O)CCOCCOCCOCCNC(=O)CN1CCN(CC(=O)O)CCN(CC(=O)O)CC1)[C@H](C)O)C(=O)N[C@H](CC(N)=O)C(=O)N1CCC[C@@H]1C(=O)O [gallium-68 labelled] |  | C57BL/6 mice, male, intestines | intravenous, 1.85 MBq, 60 min, together with: blocking antibody | tissue uptake | 0.78 ± 0.36 %ID/g
